Measured values pooled from the literature.
Observed: cell growth or viability

CCOC(=O)[C@@]12C[C@@H]1[C@@H](n1ccc3c(NC)nc(C#Cc4ccc(Cl)s4)nc31)[C@H](O)[C@@H]2O  CC50 (HepG2; ATP luminescence; 72 h): > 31.6 µM
CCCCCCCNC[C@H](O)c1cc(Cl)cc2c1-c1ccc(Cl)cc1C2  CC50 (HepG2; 48 h): 6.7 µM
Nc1nc2c(ncn2COCCO)c(=O)[nH]1  CC50 (BEAS-2B; MTT; 48 h): 206 µM
CCN(c1ccc(C)cc1)c1ccc(NC(=O)CN(C)c2ccccc2N2CCCC2=O)cc1  CC50 (HepG2; ATP luminescence; 48 h): > 40 µM
O=C1CCC(N2C(=O)c3cccc(NCCc4cn(Cc5ccc(-c6nc7cc(-c8ccccc8)ccn7c6Nc6ccc(C(=O)O)cc6)cc5)nn4)c3C2=O)C(=O)N1 (stereo not drawn)  CC50 (HCT-116; 72 h): 151 µM
Cc1ccc(N(C)c2ccc(NC(=O)CN(C)c3ccccc3N3CCCC3=O)cc2)cc1  CC50 (HepG2; ATP luminescence; 48 h): > 40 µM
CCCCCCCCNC[C@H](O)c1cc(Cl)cc2c1-c1ccc(Cl)cc1C2  CC50 (HepG2; 48 h): 6.8 µM
Cc1ccc(C(C)c2ccc(NC(=O)CN(C)c3ccccc3N3CCCC3=O)cc2)cc1 (stereo not drawn)  CC50 (HepG2; ATP luminescence; 48 h): > 40 µM
O=C1C(NCCc2c[nH]c3ccccc23)=CC2=NCCc3c[nH]c1c32  CC50 (HCT-116; MTT; 72 h): 2 µM
CCCCCNCC(O)c1cc(Cl)cc2c1-c1ccc(Cl)cc1C2 (racemic)  CC50 (HepG2; 48 h): 4.1 µM
COc1ccc(S(=O)(=O)ON=C2C=C(C)C(=O)C(C)=C2)cc1  CC50 (PANC-1): 8.44 µM
Nc1ccn([C@@H]2CS[C@H](CO)O2)c(=O)n1  CC50 (MT4; MTT; 5 days): > 87.2 µM
Cc1ccc(N(c2ccc(NC(=O)CN(C)c3ccccc3N3CCCC3=O)cn2)C(C)C)cc1  CC50 (HepG2; ATP luminescence; 48 h): > 40 µM
CC(C)c1ccc(O)c(=O)cc1  CC50 (HepDES19; MTS; 72 h): 53.4 µM
Cc1ccc(N(C)c2ccc(NC(=O)CN(C)c3ccccc3N3CCCC3=O)cc2)cn1  CC50 (HepG2; ATP luminescence; 48 h): > 40 µM
CCCCNC[C@H](O)c1cc(Cl)cc2c1-c1ccc(Cl)cc1C2  CC50 (HepG2; 48 h): 20.9 µM
O=C1c2[nH]cc3c2C(=NCC3)c2c(-c3ccc(O)cc3)c[nH]c21  CC50 (HCT-116; MTT; 72 h): 0.2 µM
Cc1ccc(N(c2ccc(NC(=O)CN(C)c3ccccc3N3CCCC3=O)cc2)C2CCCC2)cc1  CC50 (HepG2; ATP luminescence; 48 h): > 40 µM
O=C(Nc1ccc([N+](=O)[O-])cc1Cl)c1cc(Cl)ccc1O  CC50 (A549; resazurin; 72 h): 1 µM
Cn1c(Cn2ccc(C(F)(F)F)c(Oc3cc(Cl)cc(C#N)c3)c2=O)n[nH]c1=O  CC50 (MT4; MTT; 5 days): > 47 µM
O=C(CNc1ccccc1N1CCCC1=O)Nc1ccc(Oc2ccc(Cl)cc2)cc1  CC50 (HepG2; ATP luminescence; 48 h): 16.8 µM
O[C@H](CN1CCN(C(c2ccccc2)c2ccccc2)CC1)c1cc(Cl)cc2c1-c1ccc(Cl)cc1C2  CC50 (HepG2; 48 h): > 50 µM
O=C(Sc1cccccc1=O)c1cccc(C(F)(F)F)c1  CC50 (HepDES19; MTS; 72 h): 33.8 µM
OC(c1cc(C(F)(F)F)nc2c(C(F)(F)F)cccc12)C1CCCCN1 (stereo not drawn)  CC50 (HepG2; 48 h): 3.3 µM
COC(CNC1=CC2=NCCc3c[nH]c(c32)C1=O)c1c[nH]c2ccccc12 (stereo not drawn)  CC50 (HCT-116; MTT; 72 h): 2 µM
Cc1ccc(N(C)c2ccc(NC(=O)CN(C)c3ccccc3N3CCCC3=O)cc2)cc1Cl  CC50 (HepG2; ATP luminescence; 48 h): > 40 µM
O[C@H](CNCCCC(F)(F)F)c1cc(Cl)cc2c1-c1ccc(Cl)cc1C2  CC50 (HepG2; 48 h): 13.5 µM
